Experimental data collected from several papers.
Parts stem from different laboratories: compare values within a part only. Changes are numbered by the printed parent chain.

Study 1
Target: ABI1, truncated, D143A, DHFR fusion (Arabidopsis thaliana)
Technique: DHFR PCA, deep sequencing
Matrix: yeast
Setting: methotrexate growth selection, single substitutions
Added: (+)-ABA 0.11 µM
Baseline: wild-type fitted maximum
Direction: higher = stronger binding
Parent: PYL1, truncated, DHFR fusion (Arabidopsis thaliana); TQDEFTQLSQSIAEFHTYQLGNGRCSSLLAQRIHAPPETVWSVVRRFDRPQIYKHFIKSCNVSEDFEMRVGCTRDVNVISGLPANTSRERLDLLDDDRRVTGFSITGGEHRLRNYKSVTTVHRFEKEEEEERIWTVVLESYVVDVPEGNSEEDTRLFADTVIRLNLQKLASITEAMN; partner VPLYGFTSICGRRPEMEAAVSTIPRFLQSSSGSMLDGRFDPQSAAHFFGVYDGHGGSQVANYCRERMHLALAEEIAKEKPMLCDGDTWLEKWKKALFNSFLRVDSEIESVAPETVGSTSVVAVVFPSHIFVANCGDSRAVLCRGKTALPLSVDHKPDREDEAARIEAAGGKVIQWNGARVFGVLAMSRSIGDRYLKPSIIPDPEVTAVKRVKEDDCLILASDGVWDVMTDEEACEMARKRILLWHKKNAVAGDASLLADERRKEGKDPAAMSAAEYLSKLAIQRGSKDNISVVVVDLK
| Substitution | relative binding score [%] |
| --- | --- |
| D65E | 20.4 |
| G21E | 50.4 |
| T120Q | -4.36 |
| F66T | 13.2 |
| G81S | 41.1 |
| Q19W | 3.36 |
| H55M | 34.9 |
| I33V | 7.67 |
| D97K | 39.6 |
| F103R | -6.54 |
| E109W | -4.97 |
| H122Q | -5.09 |

Study 2
Target: Interferon regulatory factor 3, full length, phosphomimetic (IRF3, Homo sapiens, UniProt Q14653, residues 1-427, S386D/S396D/S398D/S402D/T404D/S405D)
Sequence of UniProt Q14653 (whole entry, unmodified, looked up): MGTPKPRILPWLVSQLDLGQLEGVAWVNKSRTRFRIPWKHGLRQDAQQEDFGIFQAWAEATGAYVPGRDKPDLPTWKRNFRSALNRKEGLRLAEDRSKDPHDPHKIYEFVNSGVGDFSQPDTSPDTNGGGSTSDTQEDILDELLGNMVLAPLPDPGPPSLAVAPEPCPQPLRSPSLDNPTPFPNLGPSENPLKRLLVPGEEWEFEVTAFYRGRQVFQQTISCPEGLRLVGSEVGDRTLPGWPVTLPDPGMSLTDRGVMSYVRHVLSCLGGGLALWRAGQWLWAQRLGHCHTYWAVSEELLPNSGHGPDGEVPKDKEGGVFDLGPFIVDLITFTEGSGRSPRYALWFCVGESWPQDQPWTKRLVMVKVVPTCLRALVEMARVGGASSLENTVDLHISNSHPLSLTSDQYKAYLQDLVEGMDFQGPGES
Technique: protein-binding microarray
Form: double-stranded DNA, one strand shown
Matrix: in vitro
Tested at: 2540 nM top
Setting: 60-bp whole probe
Added: salmon DNA 0.4 mg/ml
Baseline: random background probes
Direction: higher = stronger binding
Constant ends, left off below: GCCTAGCAC … GTCTTGATTCGCTTGACGCTGCTG
| Strand | fitted relative affinity [z-score] |
| --- | --- |
| GACGGTTTGCTTTCCCTGACGTGCTAG | 2.08 |
| TCAGCTTCCATTTTCTGACTGTGCTAG | 2.66 |
| TTAGGTATCGGAATCGGTTAGTGCTAG | 4.17 |
| GACGATTTCGGGTATCGAGCCGTGCTA | 1.52 |
| GACGTTATCGGTTTCGGGACGTGCTAG | 4.81 |
| GACGATTTCCTACTGCTGACGTGCTAG | 2.3 |
| TTACCCCATCCCCCTTTTCTGTGCTAG | 1.72 |
| GACGGTGCCCTTTTCCTGACGTGCTAG | 3.49 |
| GACGGTCTCCTTCTCCTCACGTGCTAG | 4.03 |
| TCACTTTTGCTTTACTGACTGTGCTAG | 2.51 |
| TTAGGTATCCTACTGCTTCAGTGCTAG | 2.49 |
| GATGATATCGGGTATCGAGACGTGCTA | -0.119 |
| GACGGTATCCTTCTCCTGCCGTGCTAG | 6.88 |
| GACGGTATCCATATCCTGACGTGCTAG | 3.66 |
| GTCGGTCTCGGACTGGGGACGTGCTAG | 0.848 |
| TCATTTTACTTTCTGAAACTGTGCTAG | 4.49 |
| TTAGGTTTCGGCTATCGGTTAGTGCTA | 2.74 |
| GACGAACTGGGGACTAGAGACGTGCTA | -0.411 |
| TTAGGTTTCCTACTGCTTTAGTGCTAG | 4.66 |
| CCTCTGCTCCTCTTTTTTTGGGTGCTA | 0.812 |
| GACGGCTTCGACACTGGGGACGTGCTA | -0.92 |
| GACAGTTTCGGTTTCGGGACGTGCTAG | 11.5 |

Study 3
Target: RNA binding protein fox-1 homolog 2, RRM domain, GST-SBP tag (RBFOX2, Homo sapiens, UniProt O43251-10, residues 100-194)
Technique: RNA Bind-n-Seq
Form: RNA
Matrix: in vitro
Tested at: 365 nM
Setting: natural RNA segment, single round, ends assumed
Baseline: no-protein control
Direction: higher = stronger binding
Constant ends, left off below: GGGAGUUCUACAGUCCGACGAUC … UGGAAUUCUCGGGUGCCAA
Residues (chain): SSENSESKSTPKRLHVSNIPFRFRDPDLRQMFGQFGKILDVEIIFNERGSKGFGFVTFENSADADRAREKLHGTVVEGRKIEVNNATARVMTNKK
| Strand | RBNS enrichment (R) |
| --- | --- |
| AUUUUCUUCAUGGGUUUAUGUUUUCGUUUCAUUUUGGACUCAAUUUCACAUCACCAAAUUCCUCAUUUAUACUUGGGGAAAAAACAAGGCCAUAUGUAAAAACCCUUCCA | 0.322 |
| UUUAUCAGCCAUGUUUGGUUGUAAAUGCUCGUGUGAUUUCCUACAGAAAUACUGCUCUGAAUAUUUUGUAAUAAAGGUCUUUGCACAUGUGACCACAUACGUGUUAGGAG | 0.821 |
| UGCACUUUCUGCAGGAACACCUGUGACCUCAGUCCCGACUCCUGACGCCACCGCUGCUCUUCUUGCGUUUUUGUAAUCUUUUCAUUUUUGAAGCUUCCAAUUUGCUUGCU | 2.57 |
| GACCCCCUAUGGGGGACCCCCAACUCAAGGCCAAGGACUGGGCGUAUCGGAUGCUCAUAACACCCCUGGCCUGGCCCCUUUACUGAGAAGACUCCUUGGAUAUUUCCCAA | 0.244 |
| UAUUUAUAACUUUUAAGAACAUGAAGUAUUAGCUUAAUAUAGUUUUCUCUGUUGGUUUCUUCCUCAAGUUUGCAUUGUUUUCUUUUGUUAAAAUUAGAGAUUUCUUUUUA | 1.82 |
| CAGCACAACAAAUUAAAACAACUCAUGCCACAGUAUGUUGUCUUCAUGUGUCUUGCAAUGAACUGUUUCAGUAGCCAAUCCUCUUAGUAUAUGAAAGGACAGGGAUUUUU | 0.462 |
| CUGGAGCUGGGAUGCAAUGUAGGCUGAGGGAAAGACGUCAGGUUCCUUUAAUCACAGUCACUGUUUGUUUACCUUGAGCAGUAAACCCGAAGUCAGCCUGCUCUACUACU | 0.808 |
| GGCCACGCGUGCAGGGUGUGUGUCCACGAGCGACGAUCGUGGUGGCCCCAGCGGCCUGGGCGUUGGCUGAGCCGACGCUGGGGCUUCCAGAAGGCCCGGGGGUCUCCGAG | 0.886 |
| CAGCCACCUGCCUUUGAGUCAUCAAGAUGCCUCUGCAGCCACAAUUCUGACCUAAGUGGCAGGGCCCAGAAAUCCUGAAAACCUCCCGCUGCCUUUUGUGAUACUUCCUG | 0.862 |
| GGGAUGAGCCCAGGGUUUCAUGCAUGCCAGCAAACAUUCUACUAUCUGAGCAAUGUCCCCAGUGUCCCCUCUGGUCAUGUCCUGUUUCUGCCUCAGGGAUUGUCUCUGUU | 2.88 |
| UGUGUGGUGAGGAACGCUCUCUUCUGGCCUCAAGCUCUUUGCCUCUUUGCCUUCAGCACCCUUGAUGUUCAUGGUUUACAUGGGUGGGGGUGGGAUGUAGAUAUGUGGGG | 0.377 |
| UACAUAGCAGCGGUUCCUGUCAUGUGUUCAUGUCAGAAUAUUUUUGGUUUUAAACUUUCUUAUUGCCUUUGGCUGUUGAUUAGUACAGUACAAGUGCGAUUUCAAAAAGA | 0.347 |

Study 4
Target: RING finger protein unkempt homolog, zinc fingers 1-6, GST-SBP tag (UNK, Homo sapiens, UniProt Q9C0B0, residues 30-357)
Technique: RNA Bind-n-Seq
Form: RNA
Matrix: in vitro
Tested at: not given
Setting: RNA with constant flanks, human and mouse sites, ends assumed
Baseline: input RNA pool
Direction: higher = stronger binding
Constant ends, left off below: GGGAGUUCUACAGUCCGACGAUC … CAACAGAGGAUUGAGCAUCA
Construct (chain): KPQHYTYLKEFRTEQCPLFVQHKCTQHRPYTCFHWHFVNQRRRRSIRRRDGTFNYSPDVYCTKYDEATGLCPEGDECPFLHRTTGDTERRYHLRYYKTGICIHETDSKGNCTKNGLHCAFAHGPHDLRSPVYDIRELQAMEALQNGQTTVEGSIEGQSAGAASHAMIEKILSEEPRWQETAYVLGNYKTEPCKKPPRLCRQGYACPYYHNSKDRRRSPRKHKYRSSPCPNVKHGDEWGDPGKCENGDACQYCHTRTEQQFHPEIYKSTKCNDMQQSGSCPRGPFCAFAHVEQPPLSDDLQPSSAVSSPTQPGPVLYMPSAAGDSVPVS
| Strand | bound/input enrichment [ratio] |
| --- | --- |
| GAAAAGGAUCAUAAUGAUGCAGAAGAAGAACCUGAGGCUGGUGAUUCUGUAGGAAAUGUUCAUGAGGGGUUAACUCCAGUGGUCAUUCAGAACAGCAACAAAAAAAUAUUGCAGUGUCCU | 0.145 |
| AAGAAAAAGAGAGUGGUUGCAAAUGUCUCAGAACCAGAGACUCAAUACUCAGUCUUAAACAGUAAUGAUUAUUUUAUAGACGCUUCUCCUCCGAGGGCCACGUCCCCUUCUAACAAUGUG | 0.336 |
| GAAAGAGAAGCUAAAACAACUGAUUGAGAAGAGGAUUGGCAAAGAGAAUUUCAUAGAGAAACUAGGAUUUAUUAGCAAACAUGAGUUGUAUUCCAGAGCAUCUCAGAAACCCCAGCCAAA | 29.3 |
| CAUACCAGCUGAAGAGCGACAAGCCGCUGGCAGCCGCGGAUCUCACCGCCGCUCAGGGUUUUUAGAACUUCAGCCAUAAAAAUGGGCAGAAUUUUCCUUGAUCAUAUCGGUGGUACCCGU | 0.145 |
| CACAUUCAAGAAAGCCGAUUCUUAUAUCCUGGAAAGAAUGGCAGACUUGGAGACUUCUUCGGAGACCCUGGCAACCCUCCUGAAUUUAAUCCCUCUGGGAGUAAAGAUGGAAAAUACGAA | 0.138 |
| UCUGUUCGAAGAUUGGACCCAGAAUACUGGAAGACUAUACUGAGUUGUAUAUAUGUUUUUAUAGUAUUUGGAUUUACAUCUUUCAUUAUGGUUAUAGUCCAUGAGCGAGUGCCUGACAUG | 0.24 |
| ACGCGAUGACAGUGACCUGGCCAUCGGCACUCUCCUGGGAGGACUGGCUCAGGGCCAUUUAAUAGCUACAGCUUCAUGCCUCUUGCCACCAAUCAGACAUUAGCAAUUCCUUUCUCUUUU | 0.565 |
| CUGGACUUGGAUGACCACGGCGGCAGAACCUUUCUCCGUGUCCUGCUCCACUUGACGAUGCAUGACUACCCACCCCUGGUGUCAGGGGCCCUGCAGCUCCUCUUCCGGCACUUCAGCCAG | 0.0596 |
| AUCAAGCAACUGGUUUCCGGAGCUGAGACACUGAAUCUUGUUGCCGAAAUCCUUAAAUCUAUAGACAGAAUUUCUGAAGUUAAAGACGAGGAGGAAGACUCUUGAGGACCCCUGGGUGUU | 0.361 |
| GGAAAUCAGUCUGUAACACUGGCAAGUCUUAAGAUAGUCCCAUUUAGACUUUGCAGAUGCUGAACCUGGCUCUGUAACGCUGGGAAGUCUUAAGAUAGUCCUGUUUAGACUUUGCAAACC | 0.124 |
| UGCUCCUUUCUUCACCCAGAACCUGUUGUGGGGAGUAAGAUGCAUAAGAUGCCUGACCUAUUUAUCAUUGGCAGCGGUGAGGCCAUGUUGCAGCUCAUCCCUCCCUUCCAGUGCCGAAGA | 0.179 |

A few entries again (study 1):
| Substitution | relative binding score [%] |
| --- | --- |
| F66T | 13.2 |
| G81S | 41.1 |
| Q19W | 3.36 |
| H55M | 34.9 |
| I33V | 7.67 |
| D97K | 39.6 |
| F103R | -6.54 |
| E109W | -4.97 |
